Experimental data of several laboratories.
Compare with care: the assays were run in different laboratories. ± marks the error that the study gave.

SMILES | test system | setting | how to read | tissue uptake
O=C(c1ccc(F)cc1)C1CCN(C2Cc3c(cccc3OCC[18F])CC2O)CC1 (single isomer, unassigned; (-)) | Sprague-Dawley rat, male, pancreas | intravenous, dose not given, 5 min | – | 1.2 ± 0.323 %ID/g
CCN(CC)c1ccc2c(-c3ccccc3C(=O)OCCOCC[18F])c3ccc(=[N+](CC)CC)cc-3oc2c1 | rat, heart | 60 min | – | 2.51 ± 0.16 %ID/g
CCNc1cc2[o+]c3cc(NCC)c(C)cc3c(-c3ccccc3C(=O)OCCOCC[18F])c2cc1C | rat, spleen | 60 min | – | 2.01 ± 0.61 %ID/g
COc1cc2ccnc(Cc3ccc(O[11CH3])c(OC)c3)c2cc1OC | Sprague-Dawley rats, liver | intravenous, 0.08333 h | – | 3.12 ± 0.256 %ID/g
CN(C)c1ccc(C(=O)NCCCCN2CCN(c3ccccc3O[11CH3])CC2)cc1 | male Sprague Dawley rat, liver | iv, 5 min | reference: untreated | 1.52 ± 0.331 %ID/g
O=C(O)CCCN1CCN2CCN(CC1)CC(=O)[O][Al]([18F])[O]C(=O)C2 | Sprague-Dawley rat, renal pedicle ligation, blood | 60 min | – | 13.5 ± 0.7 %ID
COc1ccc(NC(=O)Cn2c(=O)c3ccccc3n(CC(=O)Nc3cc([125I])c(OC)cc3OC)c2=O)cc1 | Wistar rat (normal), fat | intravenous, 0.5 h | – | 0.09 ± 0.01 %ID/g
CCN(CC)c1ccc2c(-c3ccccc3C(=O)OCCC[18F])c3ccc(=[N+](CC)CC)cc-3oc2c1 | rat, kidney | 60 min | – | 8.26 ± 1.62 %ID/g

A few entries again:
SMILES | test system | setting | how to read | tissue uptake
COc1ccc(NC(=O)Cn2c(=O)c3ccccc3n(CC(=O)Nc3cc([125I])c(OC)cc3OC)c2=O)cc1 | Wistar rat (normal), fat | intravenous, 0.5 h | – | 0.09 ± 0.01 %ID/g
